Results collected from several papers.
Numbered parts are unrelated; each lists some results of a single study. Changes are numbered by the printed parent chain.

Series 1
Target: Histone acetyltransferase KAT6A, winged helix 2, GST fusion (KAT6A, Homo sapiens, UniProt Q92794, residues 85-181)
Method: protein binding microarray
Form: double-stranded DNA, one strand shown
Sample: in vitro
Tested at: not given
Setting: 8-mer, flanks averaged, mean of 2 arrays, mostly near background
Relative to: not given
Reading: higher = stronger binding
Measurement: E-score
Construct (chain): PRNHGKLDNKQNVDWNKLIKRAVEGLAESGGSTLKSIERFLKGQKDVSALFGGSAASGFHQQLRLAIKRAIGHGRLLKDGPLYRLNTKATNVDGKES
ACTGTTCT: 0.0756
GGTCATGA: -0.0173
GCCGAACA: 0.124
ATTTAATC: 0.105
CTTATAAC: -0.0323
AAAATGAT: 0.139
GACATAAC: -0.132
ACTTGTCT: -0.000395

Series 2
Target: CCNB1, cyclin fold, Cln2 fusion (human)
Method: yeast growth competition, sequencing
Sample: yeast
Setting: weak parent motif
Relative to: not given
Reading: higher = stronger binding
Measurement: normalised enrichment score
Parent: CDC25A docking peptide (human); PPHRRRLLFACSP
C11G: 0.21
R5V: 1.28
R5I: 1.3
P1F: 0.508
S12Y: 0.831
R5A: 0.936
P13N: 0.849
H3L: 0.755

Series 3
Target: RNA binding protein fox-1 homolog 2, RRM domain, GST-SBP tag (RBFOX2, Homo sapiens, UniProt O43251-10, residues 100-194)
Method: RNA Bind-n-Seq
Form: RNA
Sample: in vitro
Tested at: 365 nM
Setting: natural RNA segment, single round, ends assumed
Relative to: no-protein control
Reading: higher = stronger binding
Measurement: RBNS enrichment (R)
Shared flanks, not repeated: GGGAGUUCUACAGUCCGACGAUC … UGGAAUUCUCGGGUGCCAA
Residues (chain): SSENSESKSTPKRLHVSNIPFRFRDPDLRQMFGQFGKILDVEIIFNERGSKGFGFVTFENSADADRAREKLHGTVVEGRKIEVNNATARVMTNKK
ACAAGCACUUGCACACAUGUGGACUCCUAACCAUGCUAACCUCACUGGCUGGGAAGGUGGGGACCCCAUGGGCCAGCCCUUGCAGGAGGCCCUUUUGCAAGGCUUAGGGU: 1.23
UCACUGGGUUUCUGGAUUAUUCCCAUAAAGACUGCCUGUCAAGAGGCCGGAGGUGUGUGUGGGGGGUUGCUCUGUUGUUUCCUUCCUAAUAAAAUAAAGACGUGUUGCCU: 0.604
AUGGAACUCUCCAGUGUUCCUAUAAAAUAGUAGUUCCAGCUAAAUAAACCUACUGUACUCAGUGCUUCUCCAAGAAUACUACAACGGAUGGUUGUACAGUUUGAUUGGAG: 0.526
CUGCCUGGAGAAGAUGCAUGCCAGUGCUCCUGAAGCCAGGCUGCUUCUCUUAAGAGAGGCUGUGGGUAUGCUGGAGCUGGCCUUCCGGUCAGGCUCUGGGCAGCAGGUGU: 0.488
AAAGGUUUCCAGGACUGAAACUUUGAUUUUCCGGGAUAUGUUAAAUGGUACAGCCACUAAGUAUCACCAGAAAACCAGAAGCCCAGGAUCUUCUGCCUCCGCCAGCCUGU: 0.321
ACUGGGCAUGUUUUGCUGGUGUGGUCUCUGCACUUCAGGAAUGGUCACAACAGGGGGUAGCCCUCAAAAGCACUCCUUUUUCUAUACCUCUUCUCAAGGCCAUGUAAGUU: 0.318
UGCUAUAUAUUGAAUGGGCCCUUUAGUUUUCUCUUAGUUCUGACCUGUAUAUAUUGCUUUAAUAGAGCCACGAUUUGUAUAUGUGCUGUUCAUUAGAGCAAAUUCAGGGG: 1.44
UCAAAAUGUUUAGUAUAAGAACACUUAGUCUACAUGCUGGGGUGCCUAGCUUACACAGAGCCUGGGUUCAGUCCUUCACACUGUAUAAACUGGGCGAGACAGAGCAUGUU: 0.669

Other studies, line by line
PhoQ, residues 284 288 289 292 302 303 ALVSVA  fold induction (PhoP, residues 12 14 15 18 19 STHWV (Escherichia coli, UniProt P23836); Sort-seq, refers to: YFP reporter; E. coli; PhoQ-PhoP variant library, added: 10 µM Mg2+; relative to: high Mg2+ state, higher = stronger signaling): 1.79
